Measurements gathered from unrelated publications.
Lines come from different studies, so protocols differ. Values joined by “and” are separate records of one study, mostly repeats; a detail may differ. In brackets after ≈: the same amount, converted by molar mass.

SMILES = CNS(=O)(=O)Nc1nccc(Cc2c(C)c3ccc(Oc4ncccc4F)cc3oc2=O)c1F; target or system = U-2 OS; test = cell viability, inhibitor, CellTiter-Glo; setting = 7 days; measurement = IC50; result = > 1000 nM
SMILES = C=CC(=O)Nc1cccc(Cn2ncc3cnc(Nc4cnn(CCOC)c4)nc32)c1; target or system = TNK1 human; test = binding, KINOMEscan; setting = 100 nM; scale = lower = stronger binding; measurement = percent of control; result = 5.5%
SMILES = c1ccc(-c2n[nH]cc2-c2ccnc3ccccc23)nc1; target or system = POM1 (Candida albicans); test = kinase binding, MIB/MS competition; system = Candida albicans lysate; setting = 1 µM; scale = relative to: DMSO; measurement = log2 fold change; result = -0.08
SMILES = Nc1ncc(-c2cc(-c3cnn(CC(F)(F)F)c3)ncc2F)nc1C(=O)NC1CNCC(F)C1 (stereo not drawn); target or system = MYLK; test = KINOMEscan; setting = 1 µM; scale = relative to: DMSO control; measurement = remaining binding; result = 100%
SMILES = COc1ccccc1-c1ccncc1C(=O)Nc1nnc(OCc2ccc(Cl)cc2)s1; target or system = MDA-MB-436 BRCA1-mutant; test = colony formation; setting = 0.75 µM; scale = relative to: vehicle (DMSO); measurement = colony survival; result = 71.5%
SMILES = Cc1ncsc1-c1ccc(C(C)NC(=O)C2CC(O)CN2C(=O)C(NC(=O)CCCCCCCCCCN2CCCC(Nc3ncc(Cl)c(Nc4ccccc4S(=O)(=O)C(C)C)n3)C2)C(C)(C)C)cc1 (stereo not drawn); target or system = 22Rv1; test = RNA-seq, refers to: ZNF653 mRNA; setting = concentration not given; scale = relative to: DMSO; measurement = log2 fold change; result = -1.27
SMILES = CCN(CC)CC(=O)Nc1cccc(-n2cc(-c3ccc4ccc(-c5cn(-c6cccc(NC(=O)CN(CC)CC)c6)nn5)cc4c3)nn2)c1; target or system = RCC4; test = PCR angiogenesis array, refers to: MMP2; setting = 5 x IC50, 6 h, normoxia; scale = relative to: untreated; measurement = fold regulation; result = 1.57
SMILES = COc1cc2c(NC3CCN(C(C)C)CC3)cc(N3CCOCC3)nc2cc1OCCCN1CCCC1; test = TMT quantitative proteomics, refers to: MDH1 (cytoplasmic); system = 5xFAD mice, hippocampus; setting = dose not given; measurement = normalised protein abundance; result = -0.0392 and -0.0298 and -0.0812 and -0.0306 and -0.0689 and -0.0778 and -0.0297 and -0.0309
SMILES = CN1CCCNC(=O)c2cccc(c2)C(=O)NCCCN(C)CCCNc2cccc3c2C(=O)c2cccc(c2C3=O)NCCC1; target or system = SAS; test = RNA-Seq, refers to: TADA2A mRNA; setting = 1 µM, 6 h; scale = relative to: untreated cells; measurement = log2 fold change; result = -1.39
SMILES = C=CC(=O)N1[C@@H](c2ccc3c(c2)OCO3)c2[nH]c3ccccc3c2C[C@H]1C(=O)N1CCN(C)CC1; target or system = human cyclin E1 N112C-3xFLAG:CDK2; test = co-IP with TMT proteomics, refers to: PRDX1; setting = concentration not given, Q06830; scale = relative to: wild type DMSO; measurement = relative co-enrichment; result = 105%
SMILES = C=C(NC(=O)c1csc(-c2nc3c(cc2O)-c2nc(cs2)C(=O)NC(C(C)O)C(=O)NC(=C(C)OC)c2nc(cs2)C(=O)NC2c4nc(cs4)C(=O)NC(COC(=O)c4c5c6c(cccc6n4O)COC(=O)C(OC4CC(C)(O)C(N(C)C)C(C)O4)C2OC5)c2nc-3cs2)n1)C(N)=O (stereo not drawn); target or system = Streptococcus pyogenes; system = 40 clinical isolates; measurement = MIC50; result = 7.8 ng/mL (≈ 5.43 nM)
SMILES = COC1CN([C@H]2CC[C@H]([C@@]3(C)Oc4c(Cl)cc(C(=O)NCc5c(SC)cc(C)[nH]c5=O)c(C)c4O3)CC2)C1; test = RNA-seq, refers to: EIF5A2; system = human, whole blood; setting = dose not given, 24 h; scale = relative to: pretreatment baseline; measurement = log2 fold change; result = 1.02

Excerpt of the above:
SMILES = CCN(CC)CC(=O)Nc1cccc(-n2cc(-c3ccc4ccc(-c5cn(-c6cccc(NC(=O)CN(CC)CC)c6)nn5)cc4c3)nn2)c1; target or system = RCC4; test = PCR angiogenesis array, refers to: MMP2; setting = 5 x IC50, 6 h, normoxia; scale = relative to: untreated; measurement = fold regulation; result = 1.57
SMILES = COc1cc2c(NC3CCN(C(C)C)CC3)cc(N3CCOCC3)nc2cc1OCCCN1CCCC1; test = TMT quantitative proteomics, refers to: MDH1 (cytoplasmic); system = 5xFAD mice, hippocampus; setting = dose not given; measurement = normalised protein abundance; result = -0.0392 and -0.0298 and -0.0812 and -0.0306 and -0.0689 and -0.0778 and -0.0297 and -0.0309
